Published values pooled from the literature.
Every numbered part comes from another study and shows a few of its results, in no order.

Series 1 — technique: protein binding microarray; form: double-stranded DNA, one strand shown; matrix: in vitro; tested at: not given; reference: not given; reading: higher = stronger binding
Target: Histone acetyltransferase KAT6A, winged helix 1, GST fusion (KAT6A, Homo sapiens, UniProt Q92794, residues 1-85)
Setting: 8-mer, flanks averaged, mean of 2 arrays, mostly near background
Residues (chain): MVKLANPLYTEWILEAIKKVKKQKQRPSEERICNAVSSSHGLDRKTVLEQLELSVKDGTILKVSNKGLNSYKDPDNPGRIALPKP
| Oligonucleotide | E-score |
| --- | --- |
| CGCTTCCG | 0.375 |
| CACCGCCC | 0.173 |
| CCGGTTCG | 0.141 |
| CACGAGAC | -0.0237 |
| AGCGTAGA | 0.159 |
| AGAGCAGG | -0.148 |
| CACCGGAA | 0.102 |
| CCATCTGC | 0.091 |

Series 2 — technique: universal PBM; form: double-stranded DNA, one strand shown; matrix: in vitro; tested at: 600 nM; reading: higher = stronger binding
Target: Sal-like protein 4, full length isoform A (SALL4, Homo sapiens, UniProt Q9UJQ4, residues 1-1053)
Sequence of UniProt Q9UJQ4 (whole entry, looked up): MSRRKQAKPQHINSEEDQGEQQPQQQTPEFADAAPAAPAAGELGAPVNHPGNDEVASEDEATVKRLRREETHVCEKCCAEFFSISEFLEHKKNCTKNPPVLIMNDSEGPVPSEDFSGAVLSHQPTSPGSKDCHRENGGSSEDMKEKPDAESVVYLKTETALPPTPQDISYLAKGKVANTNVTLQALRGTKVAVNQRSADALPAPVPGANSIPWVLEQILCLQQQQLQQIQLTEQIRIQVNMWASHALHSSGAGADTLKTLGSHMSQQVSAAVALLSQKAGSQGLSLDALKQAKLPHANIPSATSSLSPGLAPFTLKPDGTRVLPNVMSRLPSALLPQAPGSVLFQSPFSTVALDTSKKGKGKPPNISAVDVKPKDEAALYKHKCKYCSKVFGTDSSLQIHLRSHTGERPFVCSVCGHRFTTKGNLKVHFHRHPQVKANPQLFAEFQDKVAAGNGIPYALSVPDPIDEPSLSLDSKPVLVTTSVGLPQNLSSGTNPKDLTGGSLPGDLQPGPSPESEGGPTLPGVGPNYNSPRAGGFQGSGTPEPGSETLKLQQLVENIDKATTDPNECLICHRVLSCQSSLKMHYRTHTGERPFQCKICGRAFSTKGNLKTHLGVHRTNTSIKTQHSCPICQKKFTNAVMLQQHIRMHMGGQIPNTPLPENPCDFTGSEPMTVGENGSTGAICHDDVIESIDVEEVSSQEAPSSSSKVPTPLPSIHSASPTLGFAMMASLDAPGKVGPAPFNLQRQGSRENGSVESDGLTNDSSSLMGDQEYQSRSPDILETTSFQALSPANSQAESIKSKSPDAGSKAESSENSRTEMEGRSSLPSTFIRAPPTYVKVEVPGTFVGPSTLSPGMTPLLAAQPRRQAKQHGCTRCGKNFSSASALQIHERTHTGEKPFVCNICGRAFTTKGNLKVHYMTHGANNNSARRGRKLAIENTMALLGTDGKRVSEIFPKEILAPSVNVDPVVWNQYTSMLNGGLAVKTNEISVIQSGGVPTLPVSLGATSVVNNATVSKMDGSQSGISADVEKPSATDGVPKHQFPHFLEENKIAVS
Setting: 8-mer, flanks averaged, mean of replicates
| Oligonucleotide | E-score |
| --- | --- |
| GGTGTAGA | -0.161 |
| TATGGGCA | 0.0958 |
| AATACGGC | -0.0551 |
| AGACAGCT | -0.106 |
| GAGAGAAA | 0.0518 |
| AGACCCTC | -0.297 |
| GGGGAACA | -0.218 |
| AATCTCAA | 0.0604 |

Series 3 — technique: aptamer microarray, sandwich; form: DNA with 2'F-ANA; matrix: in vitro; tested at: 200 nM; added: Cy3 exosite-II aptamer, 400 nM; reading: higher = stronger binding; oligonucleotide: GGTTGGTGTGGTTGG
Target: Prothrombin, mature alpha-thrombin (F2, Homo sapiens, UniProt P00734)
Setting: whole 15-mer aptamer, many near background
| Modification | mean fluorescence intensity [a.u.] |
| --- | --- |
| 2'F-ANA at 1 2 4 5 6 7 8 9 10 14 15 | 143 |
| 2'F-ANA at 2 3 5 8 10 12 14 | 50.9 |
| 2'F-ANA at 1 3 7 9 12 15 | 519 |
| 2'F-ANA at 1 3 4 7 10 12 13 14 15 | 115 |
| 2'F-ANA at 1 2 4 5 6 8 9 12 14 15 | 57.9 |
| 2'F-ANA at 1 6 7 8 9 12 13 14 15 | 83.1 |
| 2'F-ANA at 2 9 10 13 | 119 |
| 2'F-ANA at 1 3 8 9 10 13 14 | 59.7 |
| 2'F-ANA at 12 13 14 | 264 |

Mixed results
| Molecule | target | assay | system | setting | scale | quantity | result |
| --- | --- | --- | --- | --- | --- | --- | --- |
| PhoQ, residues 284 288 289 292 302 303 SSCCRF | PhoP, residues 12 14 15 18 19 NYFTV (Escherichia coli, UniProt P23836) | Sort-seq, refers to: YFP reporter | E. coli | PhoQ-PhoP variant library, added: 10 µM Mg2+ | reference: high Mg2+ state, higher = stronger signaling | fold induction | 10.8 |
